Measured values from different studies.
Target: Cannabinoid receptor 1 (CNR1, Homo sapiens, UniProt P21554)
UniProt P21554, sequence (whole entry, looked up): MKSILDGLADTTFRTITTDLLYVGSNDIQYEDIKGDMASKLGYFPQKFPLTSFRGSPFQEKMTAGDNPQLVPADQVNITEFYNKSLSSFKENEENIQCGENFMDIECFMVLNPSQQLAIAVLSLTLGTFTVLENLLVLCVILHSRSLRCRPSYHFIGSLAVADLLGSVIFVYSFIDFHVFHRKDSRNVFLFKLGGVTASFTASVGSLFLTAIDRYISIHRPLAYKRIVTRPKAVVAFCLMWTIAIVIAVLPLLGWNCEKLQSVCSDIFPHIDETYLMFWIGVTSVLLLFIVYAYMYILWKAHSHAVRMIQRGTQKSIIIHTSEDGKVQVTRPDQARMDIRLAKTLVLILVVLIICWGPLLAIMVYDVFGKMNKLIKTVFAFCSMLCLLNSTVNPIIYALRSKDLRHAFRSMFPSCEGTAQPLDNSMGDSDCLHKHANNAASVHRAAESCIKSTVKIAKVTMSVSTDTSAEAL
Technique: radioligand

The Ki of O=C(c1cccnc1)c1cn(CCCCCF)c2ccccc12 is reported as 8.73 nM (ligand displacement in cells).
For CC(=O)OCCCCCn1c2ccccc2c2cc(C(=O)c3cccc4ccccc34)ccc21, the Ki was 178 nM (ligand displacement; cell membranes).
The Ki of CCCCCn1cc(C(=O)c2ccc(CC)c3ccccc23)c2ccccc21 is reported as 26 nM (ligand displacement; cell membranes).
CCOC(=O)C(CC)(CC)NC(=O)c1ccc(C2CC2)c(Cc2ccc(F)cc2)n1 has a Ki of 4.2 nM (ligand displacement; cell membranes).
For O=C(c1cccc2ccccc12)c1nc2ccccc2n1CCCCCF, the Ki was 54.1 nM (ligand displacement in cells).
The Ki of CCCCCc1cc(OC(=O)C(NC(=O)CCC(=O)O)C(C)C)c2c(c1)OC(C)(C)C1CCC(C)=CC21 (stereo not drawn) is reported as 960 nM (ligand displacement).
CCCCCCn1c2ccccc2c2cc(C(=O)c3cccc4ccccc34)ccc21 has a Ki of 69.2 nM (ligand displacement; cell membranes).
For CCOC(=O)[C@](CC)(CCCSCCOCCOCCNc1ccc([N+](=O)[O-])c2nonc12)NC(=O)c1ccc(C2CC2)c(Cc2ccc(F)cc2)n1, the Ki was 617 nM (ligand displacement; cell membranes).
O=C(c1ccc2c(c1)c1ccccc1n2CCN1CCOCC1)c1cccc2ccccc12 gave a Ki of 44.7 nM (ligand displacement; cell membranes).
With CCCCCn1cc(C(=O)c2cccc3ccccc23)c2ccccc21 the Ki was 4.44 nM (ligand displacement in cells).
O=C(c1ccc2c(c1)c1ccccc1n2CC1CCOCC1)c1cccc2ccccc12 gave a Ki of 4.79 nM (ligand displacement; cell membranes).
The Ki of CC1=C[C@H]2c3c(O)cc(CCc4ccccc4)cc3OC(C)(C)[C@H]2CC1 is reported as 481 nM (ligand displacement; cell membranes).
